Published values of several laboratories.
Each numbered part is a random draw from the data of one study; scales do not carry over between parts. Changes are numbered by the printed parent chain.

Series 1
Target: CCND2, cyclin fold, Cln2 fusion (human)
Method: yeast growth competition, sequencing
Matrix: yeast
Setting: weak parent motif
Relative to: not given
Direction: higher = stronger binding
Starting sequence: CDC6 docking peptide (human); TLKGRRLVFDNQL; partner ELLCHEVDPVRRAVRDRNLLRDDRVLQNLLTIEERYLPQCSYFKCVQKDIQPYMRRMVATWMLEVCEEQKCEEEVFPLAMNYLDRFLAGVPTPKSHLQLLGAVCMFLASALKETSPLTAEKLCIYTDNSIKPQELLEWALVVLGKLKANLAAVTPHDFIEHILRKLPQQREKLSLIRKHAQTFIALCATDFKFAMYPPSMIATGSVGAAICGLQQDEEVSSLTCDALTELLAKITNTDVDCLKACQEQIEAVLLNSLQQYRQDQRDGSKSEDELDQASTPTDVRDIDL
| Change | normalised enrichment score |
| --- | --- |
| R5S | -0.389 |
| Q12P | 0.12 |
| R5K F9L | 0.238 |
| K3Q | 0.432 |
| R5Q | 0.0962 |
| L13T | -0.294 |
| L2I | 0.236 |
| D10I | 0.422 |
| L2M | 0.337 |

Series 2
Target: Histone acetyltransferase KAT6A, both winged helices, GST fusion (KAT6A, Homo sapiens, UniProt Q92794, residues 1-181)
Method: protein binding microarray
Molecule type: double-stranded DNA, one strand shown
Matrix: in vitro
Concentration: not given
Setting: 8-mer, flanks averaged, mean of 2 arrays, mostly near background
Relative to: not given
Direction: higher = stronger binding
Target sequence (chain): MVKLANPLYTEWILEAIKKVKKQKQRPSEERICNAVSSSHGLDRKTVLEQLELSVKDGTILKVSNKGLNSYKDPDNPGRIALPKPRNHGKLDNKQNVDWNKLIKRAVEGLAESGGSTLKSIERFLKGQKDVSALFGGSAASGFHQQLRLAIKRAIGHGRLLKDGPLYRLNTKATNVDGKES
| Sequence | E-score |
| --- | --- |
| ACCAAAAA | 0.0317 |
| AGAATCCG | 0.0144 |
| CCCTGGAG | -0.193 |
| CAACCACG | 0.00038 |
| GTAAGGTA | -0.135 |
| ATGGAGTC | -0.0892 |
| GAACACTC | 0.067 |
| AACGACAG | -0.0868 |
| ATCCGGCC | 0.0924 |

Series 3
Target: RNA binding protein fox-1 homolog 2, RRM domain, GST-SBP tag (RBFOX2, Homo sapiens, UniProt O43251-10, residues 100-194)
Method: RNA Bind-n-Seq
Molecule type: RNA
Matrix: in vitro
Concentration: 365 nM
Setting: natural RNA segment, single round, ends assumed
Relative to: no-protein control
Direction: higher = stronger binding
All sequences stand within: GGGAGUUCUACAGUCCGACGAUC … UGGAAUUCUCGGGUGCCAA
Residues (chain): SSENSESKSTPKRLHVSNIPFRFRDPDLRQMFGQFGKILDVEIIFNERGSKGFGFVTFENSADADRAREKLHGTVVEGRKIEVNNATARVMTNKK
| Sequence | RBNS enrichment (R) |
| --- | --- |
| UACAUUUUGUUAUAGAAUACUUUUUUCUAGUUUCAGUAAAUAAUGAAAAGGAAGUUAAUACCAAUAAGUGUAAGCAGUAACCUUUUUUCUUUGGAUUAACCCUAGCCCUG | 0.412 |
| UGACAGUUUUUCACAUUUUGCUCACCCGGGGCACCCGUGGUCUGUGCUUGCUCUGACUCCUUGUUGCAGGGCAUAAAUGUGCCCCCCCCUCCACGCGCUGAUCGAUACUC | 0.862 |
| AAAGGACAACACGAGCUGGUCUUGUGUUGCUGGUUCCUAUUCAGUAUUUCCUGGGGAUUGUUUGCUUUUUAAGUGAAACACUUCUGACCAAUAGCACAGAACGUCUUAAU | 0.203 |
| UGAAGCAUGCAAGUAAAGCACUUUUUCUAAUUUAUAUAGAGGUAUCUAAUUAACACAGCACAUUGUACUAAUGACUAGGAGUAGCAGCUUUUUCUUCUCUCCCUCUAUGA | 35.8 |
| CUCUGUUUAAUGAUCGGCCUUUCACCUCUUCACUUAUCCUUAGUCCCAGUAGCCAGGAUACCUGAUGGCCACGUGUGCCUUGGCCACGGGAGGCUGCUGAGAUUGGCCAC | 0.333 |
| GACACCUUAGCUUCUUAUGAGGAACUUGAGUUCCCUCCGCCUUGGACAGGGCUGCAGGGCCACGCUGGUGGGAAAGACAAGAGCUGUGAAGGGCCUGGUCCCUCUCUAGA | 0.557 |

Mixed results
| Molecule | target | test | test system | setting | scale | quantity | result |
| --- | --- | --- | --- | --- | --- | --- | --- |
| PhoQ, residues 284 288 289 292 302 303 TLASMF | PhoP, residues 12 14 15 18 19 SEGLL (Escherichia coli, UniProt P23836) | Sort-seq, refers to: YFP reporter | E. coli | PhoQ-PhoP variant library, with: 10 µM Mg2+ | relative to: high Mg2+ state, higher = stronger signaling | fold induction | 19.1 |

Repeated from above (series 3):
| Sequence | RBNS enrichment (R) |
| --- | --- |
| UGAAGCAUGCAAGUAAAGCACUUUUUCUAAUUUAUAUAGAGGUAUCUAAUUAACACAGCACAUUGUACUAAUGACUAGGAGUAGCAGCUUUUUCUUCUCUCCCUCUAUGA | 35.8 |
| AAAGGACAACACGAGCUGGUCUUGUGUUGCUGGUUCCUAUUCAGUAUUUCCUGGGGAUUGUUUGCUUUUUAAGUGAAACACUUCUGACCAAUAGCACAGAACGUCUUAAU | 0.203 |
